Measurements gathered from unrelated publications.
Every numbered part comes from another study and shows a few of its results, in no order. Positions count from the first letter of the parent shown.

Block 1 — method: DHFR PCA, dose-response; matrix: yeast; setting: Hill fit, mean, not affinity; together with: (+)-ABA, dose series; reading: lower = more sensitive; quantity: ABA EC50
Target: ABI1, truncated, D143A, DHFR fusion (Arabidopsis thaliana, UniProt P49597)
Parent: PYL1, truncated, DHFR fusion (Arabidopsis thaliana, UniProt Q8VZS8); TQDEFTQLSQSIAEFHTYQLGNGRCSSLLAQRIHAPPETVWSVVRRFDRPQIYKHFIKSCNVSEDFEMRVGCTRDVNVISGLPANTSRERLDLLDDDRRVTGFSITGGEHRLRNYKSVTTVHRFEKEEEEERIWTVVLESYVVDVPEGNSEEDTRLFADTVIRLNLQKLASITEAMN
Variant = F56W; result = 4.43 µM
Variant = L20P; result = 1.3 µM
Variant = D48G; result = 92.2 µM
Variant = I172D; result = 599 µM
Variant = T6Q; result = 4.84 µM
Variant = E130D; result = 1.4 µM
Variant = W134D; result = 3.3 µM
Variant = A175N; result = 2.19 µM
Variant = D96E; result = 3.18 µM
Variant = E174C; result = 12.3 µM
Variant = I57T; result = 91.5 µM
Variant = L138W; result = 416 µM
Variant = Y18A; result = 11.5 µM
Variant = N165K; result = 181 µM
Variant = H122R; result = 493 µM
Variant = R99C; result = 2.87 µM
Variant = I172L; result = 2.76 µM
Variant = K168V; result = 7.69 µM
Variant = G23C; result = 21 µM
Variant = I172C; result = 8.11 µM
Variant = N61E; result = 3.35 µM

Block 2 — method: RNA Bind-n-Seq; form: RNA; matrix: in vitro; concentration: 365 nM; baseline: no-protein control; reading: higher = stronger binding; quantity: RBNS enrichment (R)
Target: RNA binding protein fox-1 homolog 2, RRM domain, GST-SBP tag (RBFOX2, Homo sapiens, UniProt O43251-10, residues 100-194)
Setting: natural RNA segment, single round, ends assumed
All sequences stand within: GGGAGUUCUACAGUCCGACGAUC … UGGAAUUCUCGGGUGCCAA
Construct (chain): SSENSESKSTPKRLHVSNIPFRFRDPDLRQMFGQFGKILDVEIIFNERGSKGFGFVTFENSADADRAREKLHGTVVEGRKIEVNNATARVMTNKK
Strand = AAGACUGGAGGGCAGCGGGGAGACUUCCAUCGGGCUAGAGUGCCACACUCUCCAGUCAUGUCUCCCAAGGGGAUGCAAUUCAGGCUGAGGAAAAGAUGCCAUAUCCCUCU; result = 0.351
Strand = ACCUUACCAAUAUUAAUCCCAGCGUGGUAACUCUGUGUGACCCCGAUAACAUUUUGUAACAUUGUGCUGCCUUAGAGUUUGUACUGUGAGUUCUAUCAGUAUUUAUGUUG; result = 0.534
Strand = UUCUACACUUUGCAGAUUUUAUUUAGGAUUUAAUUCUUUAAAGACUAUAUUCAUUUAGUCACUAUAGUGGAUCUCUUCUACUGCAAGUAUUCAUCUGAUUUUUAAAUUAU; result = 0.467
Strand = CAUCUGUCAGUCAGGUUGUAUGGGCUGGAGGCUGGCAGGUCUGCAUGGUAGGCUGAGUUUGCUGUCCAAUAGCUGUGUGACUUUGGGCAAGUCCCAGUCACCUUCCUGGC; result = 1.13
Strand = CUGAGGCAGCAGUGUGAGGCCAGGGCAGAGUGAGACCCAGCCCUCAUCCCGAGCACCUCCACAUCCUCCACGUUCUGCUCAUCAUUCUCUGUCUCAUCCAUCAUCAUGUG; result = 0.422
Strand = AAUGUAUAUAUGAGUAGUUUGCCAUGAGAUAACACAGUGUAAACAGUAGACACCCAGAAAUCGUGACUUCUGUGUUCUCUCCAUUUGAGUAUUUUGUAAUUUUUUUGAAA; result = 1.43
Strand = CAGGCAUCAGGCCCAGUGACAGUGCACCAAAGACACAGAGCCUGGAAGGGCUGUCGGGACAUACUUUCUACAUAACGCUACAACCCUGACCAAGCAAAGACAUGCUUGUU; result = 0.74
Strand = UUUUGUAGAUGACUGAAGUAUUGUAAGGCGCAGUCAGGAGCUCUGGACUCGAGAACGGCAGAAAGGAGUAGUGCAGAGAGAUGAUUAAGCAAACUCUCCCAGCUCUGUGA; result = 0.49

Block 3 — method: universal PBM; form: double-stranded DNA, one strand shown; matrix: in vitro; concentration: not given; reading: higher = stronger binding; quantity: E-score
Target: Sal-like protein 4, full length isoform B (SALL4, Homo sapiens, UniProt Q9UJQ4-2, residues 1-616)
Setting: 8-mer, flanks averaged, mean of replicates
Construct (chain): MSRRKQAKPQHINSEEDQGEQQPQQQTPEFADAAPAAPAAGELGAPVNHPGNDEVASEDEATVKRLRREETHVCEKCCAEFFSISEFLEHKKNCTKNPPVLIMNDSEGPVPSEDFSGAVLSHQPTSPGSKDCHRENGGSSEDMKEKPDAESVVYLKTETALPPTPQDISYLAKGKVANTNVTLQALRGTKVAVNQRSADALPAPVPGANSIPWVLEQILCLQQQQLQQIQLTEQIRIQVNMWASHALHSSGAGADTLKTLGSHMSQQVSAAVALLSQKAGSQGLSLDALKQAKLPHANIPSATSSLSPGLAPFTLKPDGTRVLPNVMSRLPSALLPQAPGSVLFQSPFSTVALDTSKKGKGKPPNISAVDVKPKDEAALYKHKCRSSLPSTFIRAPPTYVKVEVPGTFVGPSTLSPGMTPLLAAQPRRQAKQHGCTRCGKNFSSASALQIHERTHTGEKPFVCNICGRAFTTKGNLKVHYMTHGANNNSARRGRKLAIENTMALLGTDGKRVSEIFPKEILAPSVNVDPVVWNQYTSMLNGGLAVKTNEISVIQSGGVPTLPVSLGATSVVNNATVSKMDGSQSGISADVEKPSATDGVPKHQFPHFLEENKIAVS
Strand = CCATGGGG; result = -0.256
Strand = ACCATCCT; result = 0.161
Strand = CCGCGCGC; result = -0.324
Strand = ATGAGGAC; result = 0.0152
Strand = AATTCGGT; result = -0.00993
Strand = ATGCATGC; result = 0.0965
Strand = CAGGTCAG; result = -0.141
Strand = ACAAGTCG; result = -0.0656
Strand = AGCGACGA; result = -0.13
Strand = CCGGTTAC; result = -0.296
Strand = ATAGCGAC; result = 0.00934
Strand = TATCTGGA; result = 0.119
Strand = ACAGACGA; result = -0.0922
Strand = GCCACAGC; result = -0.314
Strand = AACATCCC; result = -0.131
Strand = ACTATTAT; result = 0.351
Strand = TCTTAGCA; result = -0.035
Strand = CAACCGCA; result = -0.121
Strand = AAGTGAAG; result = 0.145
Strand = CATTCATA; result = 0.393
Strand = CACAGCCA; result = -0.237

Block 4 — target: CREB3, bZIP domain (human); method: DHFR protein complementation; matrix: yeast; baseline: wild-type JUN-FOS pair; reading: higher = stronger binding; quantity: binding fitness
Setting: single substitutions, most at no-binding floor
Parent: JUN, bZIP domain (human); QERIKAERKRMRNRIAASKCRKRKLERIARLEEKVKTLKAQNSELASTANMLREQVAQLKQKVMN; partner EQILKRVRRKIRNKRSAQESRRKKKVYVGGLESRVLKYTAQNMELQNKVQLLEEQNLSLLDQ
Variant = E54D; result = -1.27 natural log
Variant = A46W; result = -1.54 natural log
Variant = Q41T; result = -1.4 natural log
Variant = A40R; result = -1.39 natural log
Variant = Q55F; result = -1.59 natural log
Variant = T48W; result = -1.54 natural log
Variant = E33I; result = -1.48 natural log
Variant = A49E; result = -1.5 natural log
Variant = R30S; result = -1.41 natural log
Variant = E33D; result = -1.47 natural log
Variant = L52D; result = -1.53 natural log
Variant = S47M; result = -1.46 natural log
Variant = V56R; result = -1.51 natural log

Block 5 — target: CCND3, cyclin fold, Cln2 fusion (human); method: yeast growth competition, sequencing; matrix: yeast; setting: strong parent motif; baseline: not given; reading: higher = stronger binding; quantity: normalised enrichment score
Parent: INSM1 docking peptide (human); PKAIRKLHFEDEV
Variant = PKAIRKLHFLDEV [E10L]; result = 0.369
Variant = PKIIRKLHFEDEV [A3I]; result = -0.154
Variant = PKAIRVLHFEDEV [K6V]; result = 1.04
Variant = PKCIRKLHFEDEV [A3C]; result = 0.896
Variant = PKAIRNLHFEDEV [K6N]; result = 0.688
Variant = PYAIRKLHFEDEV [K2Y]; result = 0.664
Variant = PKAIRKLHPEDEV [F9P]; result = 0.0492
Variant = PKAIRKLHGEDEV [F9G]; result = 0.415
Variant = PQAIRKLHFEDEV [K2Q]; result = 0.757
Variant = PKAIRKLHFIDEV [E10I]; result = 0.301
Variant = PKAKRKLHFEDEV [I4K]; result = 0.645
Variant = PKAIRKIHFEDEV [L7I]; result = 1.1
Variant = PKAIRKLLFEDEV [H8L]; result = 1.28
Variant = PKWIRKLHFEDEV [A3W]; result = -0.588
Variant = PKAIRKLHNEDEV [F9N]; result = -0.0671
Variant = PKAIRKLHAEDEV [F9A]; result = -0.437
Variant = PKAIMKLHFEDEV [R5M]; result = 0.94
Variant = PKAIRKLHFELEV [D11L]; result = 0.193
Variant = PKACRKLHFEDEV [I4C]; result = 2.06
Variant = PKYIRKLHFEDEV [A3Y]; result = 0.0844
Variant = PKMIRKLHFEDEV [A3M]; result = 0.415
Variant = PHAIRKLHFEDEV [K2H]; result = 1.27
Variant = PKAIWKLHFEDEV [R5W]; result = 0.422
Variant = PKAISKLHFEDEV [R5S]; result = 0.183
Variant = PKAIRKLHFEDTV [E12T]; result = 0.767

Repeated from above (block 5):
Variant = PKIIRKLHFEDEV [A3I]; result = -0.154
Variant = PKAIRVLHFEDEV [K6V]; result = 1.04
Variant = PKCIRKLHFEDEV [A3C]; result = 0.896
Variant = PKAIRNLHFEDEV [K6N]; result = 0.688
Variant = PYAIRKLHFEDEV [K2Y]; result = 0.664
Variant = PKAIRKLHPEDEV [F9P]; result = 0.0492
Variant = PKAIRKLHGEDEV [F9G]; result = 0.415
Variant = PQAIRKLHFEDEV [K2Q]; result = 0.757
